Published values pooled from the literature.
Target: calf thymus DNA

`Cc1c(C)c(C)[c-](C)c1C.[C-]#[O+].[C-]#[O+].[C-]#[O+].[Cl-].[Cl-].[Cl-].[Ir+3].[Re+].c1cnc(-c2ncccn2)nc1` — result for “apparent binding constant”: 1.6e+06 M⁻¹ (ethidium bromide displacement; DNA 120 µM, 50% quenching, added: ethidium bromide 8 µM).
`COC(=O)c1cnc(-c2cnccn2)cc1C(=O)OC.COC(=O)c1cnc(-c2cnccn2)cc1C(=O)OC.[Cl-].[Cl-].[Cl-].[Cl-].[Cu+2].[Cu+2]` has a fluorescence quenching of 28.2% (ethidium bromide displacement).
`CC1=[N+]2N=C(c3ccccc3)[O][Pd-2]2([Cl])[O+]=C2Oc3ccccc3C=C21` (stereo not shown) gave a hypochromism of 12.7% (UV-visible absorption titration; concentration not given, pH 7.2).
`Cc1ccc(C(C)C)cc1.[Cl-].[Cl][Ru+].[Ru+].c1ccc(-c2cn(CCCCOc3ccccc3-c3nc4ccccc4s3)nn2)nc1`: “apparent binding constant” 2e+06 M⁻¹ (ethidium bromide displacement; DNA 120 µM, 50% quenching, added: ethidium bromide 8 µM).
For `CCCCCC(C)NCC(=O)O` (stereo not shown), “bimolecular quenching rate constant” read 2.8e+10 M⁻¹ s⁻¹ (ethidium bromide displacement fluorescence; room temperature).
`[C-]#[O+].[C-]#[O+].[C-]#[O+].[C-]#[O+].[C-]#[O+].[C-]#[O+].[Cl-].[Cl-].[Re+].[Re+].c1cnc(-c2ncccn2)nc1` — result for “number of binding sites”: 1.14 (concentration not given).
The delta Tm of `CCN(CC)CCCC(C)Nc1cc[n+]([Ru-]([Cl])[Cl])c2cc(Cl)ccc12.c1ccccc1` (stereo not shown) is reported as 3.5 °C (thermal denaturation; 0.5 equivalents per DNA, 1 h, pH 7.39, 25 °C, 50 mM NaClO4).
The Stern-Volmer constant of `CS(C)=O.CS(C)=O.[Cl][Cu][Cl].c1ccc(-c2nnc(-c3ccc4c(c3)OCO4)[nH]2)nc1` is reported as 5010 M⁻¹ (GelRed displacement; room temperature).
`CCN(CC)CCCC(C)Nc1cc[n+]([Ru-]([OH2+])[OH2+])c2cc(Cl)ccc12.Cc1ccc(C(C)C)cc1.F[B-](F)(F)F.F[B-](F)(F)F` (stereo not shown) has a delta Tm of 4.8 °C (thermal denaturation; 0.5 equivalents per DNA, 1 h, pH 7.39, 25 °C, 25 mM NaClO4).
The Stern-Volmer constant of `CCCNCC(=O)O` is reported as 420 M⁻¹ (ethidium bromide displacement fluorescence; room temperature).

Excerpt of the above:
For `CCCCCC(C)NCC(=O)O` (stereo not shown), “bimolecular quenching rate constant” read 2.8e+10 M⁻¹ s⁻¹ (ethidium bromide displacement fluorescence; room temperature).
